Assay results pooled from the literature.
Each line is one published result; not all experiments were run side by side. ± marks the error that the study gave.
Chain of UniProt P51617 (whole entry, looked up): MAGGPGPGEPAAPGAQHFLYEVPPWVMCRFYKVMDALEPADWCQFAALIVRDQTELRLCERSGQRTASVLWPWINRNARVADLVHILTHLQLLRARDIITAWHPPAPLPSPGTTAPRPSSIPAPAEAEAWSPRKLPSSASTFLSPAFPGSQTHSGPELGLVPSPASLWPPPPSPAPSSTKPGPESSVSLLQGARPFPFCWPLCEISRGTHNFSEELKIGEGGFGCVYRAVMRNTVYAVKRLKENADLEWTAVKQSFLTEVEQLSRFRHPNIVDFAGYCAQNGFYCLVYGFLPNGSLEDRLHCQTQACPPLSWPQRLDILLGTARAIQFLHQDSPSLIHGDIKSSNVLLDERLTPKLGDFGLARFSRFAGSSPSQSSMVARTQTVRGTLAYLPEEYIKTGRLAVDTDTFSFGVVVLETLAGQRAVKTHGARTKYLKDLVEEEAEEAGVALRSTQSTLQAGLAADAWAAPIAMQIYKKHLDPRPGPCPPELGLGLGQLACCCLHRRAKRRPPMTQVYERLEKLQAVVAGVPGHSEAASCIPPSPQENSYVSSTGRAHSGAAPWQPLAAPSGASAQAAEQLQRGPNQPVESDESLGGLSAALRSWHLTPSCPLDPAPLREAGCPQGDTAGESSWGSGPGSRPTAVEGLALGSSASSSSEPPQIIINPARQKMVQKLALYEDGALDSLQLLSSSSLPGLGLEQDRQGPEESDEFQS

C[C@@H]1O[C@H](OP(=O)(O)O)[C@@H](O)[C@H](O)[C@@H]1O  z-scored log2 fold change (binding, equilibrium dialysis LC-MS; 5 µM, thermostabilized A2AR-BRIL construct; relative to: no-protein control, direction not given): 0.39
CCN1CCN(Cc2ccc(NC(=O)Nc3ccc(Oc4cc(NC)ncn4)cc3)cc2C(F)(F)F)CC1  cell index (iCell Cardiomyocytes (hiPSC-derived); cellular impedance; concentration not given, 24 h; relative to: control): 101%
Cn1cnc2c(F)c(Nc3ccc(Br)cc3F)c(C(=O)NOCCO)cc21  viability (A549; 10 µM, 72 h): 48.8%
CCn1cc(-c2cc(Cn3ccnc3)cc3c2CCN([C@H](c2cc(OC)ccn2)C2CC2)C3=O)c(C(F)(F)F)n1  EC50 (AN3-CA; cell growth, inhibitor; 120 h): 29.5 µM
CC(C)C[C@H](NC(=O)C[C@H](O)[C@H](CC(C)C)NC(=O)[C@H](Cc1c[nH]cn1)NC(=O)CNC(=O)[C@@H](NC(=O)[C@H](C)NC(=O)[C@H](Cc1c[nH]c2ccccc12)NC(=O)[C@H](CCC(N)=O)NC(=O)[C@@H](Cc1ccccc1)NC(=O)COCCOCCNC(=O)CCC(C(=O)O)N1CCN(CC(=O)O)CCN(CC(=O)O)CCN(CC(=O)O)CC1)C(C)C)C(N)=O (some centres unmarked) [lutetium-177 labelled]  tissue uptake (BALB/c nu/nu mice, skin; intravenous, 500 pmol, 1 h, with: PA 300 µg): 0.33 ± 0.05 %ID/g
Cc1[nH]c(/C=C2\C(=O)Nc3ccc(S(=O)(=O)Cc4c(Cl)cccc4Cl)cc32)c(C)c1C(=O)N1CCC[C@@H]1CN1CCCC1  cell index (iCell Cardiomyocytes (hiPSC-derived); cellular impedance; concentration not given, 24 h; relative to: control): 99.5%
Cc1cc(Nc2ncc(Cl)c(Nc3ccccc3S(=O)(=O)C(C)C)n2)c(OC(C)C)cc1C1CCNCC1  log2 fold change (CLB-BAR; phosphoproteomics LC-MS/MS, measured: CCDC88C phosphorylation; 200 nM, 60 min; relative to: untreated): -5.88
Cn1cc(-c2ccc3nnc(Sc4ccc5ncccc5c4)n3n2)cn1  ATP level (iCell Cardiomyocytes (hiPSC-derived); CellTiter-Glo; concentration not given, 24 h; relative to: control): 100%
CCn1c(-c2nonc2N)nc2cncc(CNC3CCNCC3)c21  relative cell number (SK-OV-3; ATP; 2D monolayer culture; 10 µM, 4 days; relative to: untreated): 50.6%
COc1cnc2cccc(N3CCc4c(cc(Cn5ccnc5C)cc4-c4cn(C)nc4C(F)(F)F)C3=O)c2c1  EC50 (AN3-CA; cell growth, inhibitor; 120 h): 10.3 µM
O=C1CCNC(=O)N1  z-scored log2 fold change (binding, equilibrium dialysis LC-MS; 5 µM, thermostabilized A2AR-BRIL construct; relative to: no-protein control, direction not given): -0.773
CC(C)NCC(O)c1ccc(O)c(O)c1 (centres unmarked)  sarcomere length (mouse ventricular cardiomyocytes; dose not given, 0.171 s): 1.61 µm
CCn1cc(-c2cc(Cn3ccoc3=N)cc3c2CCN([C@@H](C)c2cc(OC)ccn2)C3=O)c(C(F)(F)F)n1  EC50 (LUDLU-1; cell growth, inhibitor; 120 h): 0.604 µM
Cc1cc(=O)[nH]n1-c1nc(-c2ccc(Cl)cc2)c2c(NC(=O)c3ccccc3)nnc-2[nH]1  cell growth (KM12; SRB; 10 µM, NCI60 single-dose screen, colon cancer; relative to: untreated): 100%
N#CC[C@H](C1CCCC1)n1cc(-c2ncnc3[nH]ccc23)cn1  ATP level (iCell Cardiomyocytes (hiPSC-derived); CellTiter-Glo; concentration not given, 24 h; relative to: control): 105%
CC[C@@H]1[C@H](F)C(=O)N[C@@H]1COc1nccc2cc(C(N)=O)c(OC)cc12  inhibition (IRAK1 (Homo sapiens, UniProt P51617); ATP-site probe binding, ActivX profiling; THP-1 cell lysate; 0.2 mM, Lys2 site): 2.2%
Cn1cc(-c2ccc(-c3cncc(Cl)c3N3CCC4(CCNC4=O)CC3)cc2)cn1  log2 fold change (COLO 205; gene expression, microarray, measured: FCGRT mRNA; concentration not given, 6 h; relative to: untreated cells): 2.53
CN1CC[C@H](c2c(O)cc(O)c3c(=O)cc(-c4ccccc4Cl)oc23)[C@H](O)C1  ATP level (iCell Cardiomyocytes (hiPSC-derived); CellTiter-Glo; concentration not given, 24 h; relative to: control): 88.6%
O=C(/C=C/C=C/C=C/C1CCCCC1)NC1=C[C@@](O)(/C=C/C=C/C=C/C(=O)NC2=C(O)CCC2=O)[C@@H]2O[C@@H]2C1=O  GI50 (syo1; cell growth, inhibitor, CellTiter-Glo luminescence; 78 h; relative to: day 0 cell count): 20.6 µM
CN1CCN(c2ccc3nc(-c4c(N)c5c(F)cccc5[nH]c4=O)[nH]c3c2)CC1  fibulin-3 level (ARPE-19 HiBiT fibulin-3; HiBiT luminescence; 1.66 µM): -26.6%

For quick reference, copied from above:
CC[C@@H]1[C@H](F)C(=O)N[C@@H]1COc1nccc2cc(C(N)=O)c(OC)cc12  inhibition (IRAK1 (Homo sapiens, UniProt P51617); ATP-site probe binding, ActivX profiling; THP-1 cell lysate; 0.2 mM, Lys2 site): 2.2%
Cn1cc(-c2ccc(-c3cncc(Cl)c3N3CCC4(CCNC4=O)CC3)cc2)cn1  log2 fold change (COLO 205; gene expression, microarray, measured: FCGRT mRNA; concentration not given, 6 h; relative to: untreated cells): 2.53
